Measurements pooled from the literature.
Every numbered part comes from another study and shows a few of its results, in no order. Changes are numbered by the printed parent chain.

Set 1 — method: RNA Bind-n-Seq; form: RNA; sample: in vitro; concentration: 1 µM; setting: whole 134-nt RNA, ends assumed; added: 150 mM KCl; reference: input library; reading: higher = stronger binding
Target: Ras GTPase-activating protein-binding protein 1, C-terminal RGG region (G3BP1, Homo sapiens, UniProt Q13283)
UniProt Q13283, sequence (whole entry, looked up): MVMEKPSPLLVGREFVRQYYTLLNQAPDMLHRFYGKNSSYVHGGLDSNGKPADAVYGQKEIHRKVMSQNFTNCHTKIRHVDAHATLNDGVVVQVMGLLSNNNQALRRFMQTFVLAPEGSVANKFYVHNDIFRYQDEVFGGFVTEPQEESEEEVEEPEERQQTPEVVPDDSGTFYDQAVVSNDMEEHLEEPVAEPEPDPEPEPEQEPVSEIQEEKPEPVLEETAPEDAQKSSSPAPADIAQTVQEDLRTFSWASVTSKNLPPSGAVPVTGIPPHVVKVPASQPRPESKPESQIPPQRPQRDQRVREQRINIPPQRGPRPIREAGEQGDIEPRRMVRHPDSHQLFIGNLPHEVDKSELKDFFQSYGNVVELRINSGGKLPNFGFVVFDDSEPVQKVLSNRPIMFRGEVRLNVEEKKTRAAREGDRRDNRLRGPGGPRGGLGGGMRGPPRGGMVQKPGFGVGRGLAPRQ
All sequences stand within: GGGAGUUCUACAGUCCGACGAUC … UGGAAUUCUCGGGUGUCAAGG
| Strand | log2 enrichment |
| --- | --- |
| CUCAAGUCCUGUGCUACACAUCGUAUGUACCGAAUCGGCCCGGCCCGGCCCGGGAAAGUAUUAUGUUACGCCGUUCGGAUCUGCACUUCC | -1.54 |
| UCCUCAAGUCCUGUGCUACACAUCGUAUGUACCGAAUCGGAGGAGGAGGGGAAAGUAUUAUGUUACGCCGUUCGGAUCUGCACUUCCAGC | -1.24 |
| GUCCUGUGCUACACAUCGUAUGUACCGAAUCGGGGUGGGGAAAAAGGGGAAAAAGGGGAAAGUAUUAUGUUACGCCGUUCGGAUCUGCAC | 1.19 |
| UAACUUUAGAGGAGGAUCUGAUGGAUUUGGCAGUGGACGUGGAUUUGGGGAUGGCUAUAAUGGGUAUGGAGGAGGACCUGGAGGUGGCAA | -1.41 |
| ACCAUGCAGCUGGGCAUCUUUGGGAAGUGGGGCAAGGGGGGGAUAGGGAGGGGGGUAACACUUUGGGAACAGGUGGUCCCAGGUCGUUUC | -0.494 |
| CACAGACAACACGCACCCACACAGACACAGAGGGAAGGGGUUGGGAUGGGGACAGGGUGCACAGCAGGGCGGGGUAGGACCCCGGCCCCU | -1.22 |
| AGUCCUGUGCUACACAUCGUAUGUACCGAAUCGGUUUUUGGUUUUUGGGGUUUUUGGAAAGUAUUAUGUUACGCCGUUCGGAUCUGCACU | -1.41 |
| UGGGAGGUGGAUUUUGUUUAUUUUUUUAGCUCAUUUCCAGGGGUGGGAAUGUUUUUUUAAUAUGUGUCAUGAAUAAAGUUGUUUUUGAAA | 4.08 |
| ACCACGCAGGUGGGCAUCUUUGGGAAGUGGGGCAAGGGGGGGAUAGGGAGGGGGGUAACACUUUGGGAACAGGUGGUCCCAGGUCGUUUC | -1.01 |

Set 2 — target: CCNF, cyclin fold, Cln2 fusion (human); method: yeast growth competition, sequencing; sample: yeast; setting: weak parent motif; reference: not given; reading: higher = stronger binding
Parent: FOXM1 docking peptide (human); PHLARPIKVESPP; partner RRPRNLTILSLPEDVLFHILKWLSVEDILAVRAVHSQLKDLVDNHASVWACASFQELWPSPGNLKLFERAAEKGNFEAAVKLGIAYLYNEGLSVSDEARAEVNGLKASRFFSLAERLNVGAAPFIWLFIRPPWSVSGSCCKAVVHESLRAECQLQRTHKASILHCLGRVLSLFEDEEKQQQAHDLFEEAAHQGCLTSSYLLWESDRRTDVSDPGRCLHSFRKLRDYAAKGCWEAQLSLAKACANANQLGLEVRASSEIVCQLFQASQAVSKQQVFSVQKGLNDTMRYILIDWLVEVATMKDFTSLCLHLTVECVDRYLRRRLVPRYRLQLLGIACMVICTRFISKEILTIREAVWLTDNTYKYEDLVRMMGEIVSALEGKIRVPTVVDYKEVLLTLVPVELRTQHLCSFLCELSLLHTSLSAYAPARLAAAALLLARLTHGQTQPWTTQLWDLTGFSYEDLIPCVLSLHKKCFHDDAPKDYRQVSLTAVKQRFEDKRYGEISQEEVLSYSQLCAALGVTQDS
| Variant | normalised enrichment score |
| --- | --- |
| AHLARPIKVESPP [P1A] | -0.514 |
| PHLARAIKVESPP [P6A] | -0.074 |
| PHLAAPIKVESPP [R5A] | -0.9 |
| PHLARPIKVESAP [P12A] | -1.31 |
| PHLARPIKAESPP [V9A] | -0.182 |
| PHLARPIKVESPA [P13A] | -0.539 |

Set 3 — method: RNA Bind-n-Seq; form: RNA; sample: in vitro; concentration: 365 nM; reference: no-protein control; reading: higher = stronger binding
Target: RNA binding protein fox-1 homolog 2, RRM domain, GST-SBP tag (RBFOX2, Homo sapiens, UniProt O43251-10, residues 100-194)
Setting: natural RNA segment, single round, ends assumed
All sequences stand within: GGGAGUUCUACAGUCCGACGAUC … UGGAAUUCUCGGGUGCCAA
Target sequence (chain): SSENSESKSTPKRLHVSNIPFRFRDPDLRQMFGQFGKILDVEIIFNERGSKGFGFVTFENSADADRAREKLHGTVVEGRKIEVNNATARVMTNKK
| Strand | RBNS enrichment (R) |
| --- | --- |
| UAGUGUGUCCCUAUUAUAAAUGCAUUGGAGAAGUAUUUUUAUGAGACUCUUUACUCAGGUGCAUGGUUACAGCCCACAGGGAGGCAUGGAGUGCCAUGGAAGGAUUCGCC | 1.8 |
| GAACAUGAAAUUUAGUUGUGGUUAAAUUAUUUAUUUAUUUCAUGCAUUCAUUUUAUUUCCCUUAAGGUCUGGAUGAGACUUCUUUGGGGAGCCUCUAAAAAAAUUUUUCA | 0.617 |
| UUCAGUCUCUCUACCACAUUCCAUGUAAACCUAUGGUGAAGUAACACCAGAAAAAAGAGCCUGAGAGUGGUCGCUUCCAUCUUCCACUCCCCUUGUUCUUGGGGGGAAAG | 0.305 |
| AUUGUGUGAACCACUCUUAGCAGGCAUUGCUACUGGAUUCUUAACUAGAGAAAACUUACAGAACAGGUGUUAAGCCUUUUCCAAUAUUUAGUAUUGUAGUCUUCAUAGAA | 0.246 |
| UUUUGUUGAUGAGUUGUAUACUGAUGCACACAUUACAGGAGAGAGCUGAACGUUCUCUCAGCCCAGAGCAGCAAACACAUGAAAGUCAGAAGUCUCUAAUAUAUCAUUUG | 0.245 |
| CCUUGUCAUAGACCUUAUUAGGGUUUGGGGUUUUGUUCCUUCGUUGUUUUCCUCUCACUAUUUAAAGUUGACUAGAAGAGAAGAGUUGUGUGUUGAGGCUAAGUUGGUGG | 0.599 |
| UGGAGGAGGGAGGCCACAACUCCGAGCUGCCCACCUGGUGCUGAGCUGGGGCCCCGCCUCCUUUCUGUUUUAUUUUUGAGGAAAUAAAAUAACCAAGUGCUAAAUCUUGU | 0.44 |
| GAGCUGGGCAAGAUUUUGGGUUUGCUGCUCCCUGAAGCUGGAUUCUUUCAUACGAUACUCUUUCUCAAGAAGGGGGCUCCCUGGGAUCUCCAGGUGUACUGCACUUACCC | 1.27 |

Further values, each from its own experiment
| Molecule | target | assay | test system | conditions | how to read | quantity | value |
| --- | --- | --- | --- | --- | --- | --- | --- |
| PhoQ, residues 284 288 289 292 302 303 MLMVEA | PhoP, residues 12 14 15 18 19 NHFIF (Escherichia coli, UniProt P23836) | Sort-seq, item: YFP reporter | E. coli | PhoQ-PhoP variant library, added: 10 µM Mg2+ | reference: high Mg2+ state, higher = stronger signaling | fold induction | 4.1 |

Some of these lines once more (set 2):
| Variant | normalised enrichment score |
| --- | --- |
| PHLARAIKVESPP [P6A] | -0.074 |
| PHLAAPIKVESPP [R5A] | -0.9 |
